Experimental data gathered from unrelated publications.
Every numbered part comes from another study and shows a few of its results, in no order.

Set 1 — method: protein binding microarray; form: double-stranded DNA, one strand shown; medium: in vitro; concentration: not given; relative to: not given; direction: higher = stronger binding; measurement: E-score
Target: Histone acetyltransferase KAT6A, both winged helices, GST fusion (KAT6A, Homo sapiens, UniProt Q92794, residues 1-181)
Setting: 8-mer, flanks averaged, mean of 2 arrays, mostly near background
Residues (chain): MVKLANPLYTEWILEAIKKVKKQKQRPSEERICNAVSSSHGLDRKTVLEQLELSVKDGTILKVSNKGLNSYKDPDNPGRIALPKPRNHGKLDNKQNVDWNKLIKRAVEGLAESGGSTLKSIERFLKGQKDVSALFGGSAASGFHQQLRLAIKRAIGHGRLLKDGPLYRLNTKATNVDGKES
AAACTAGT: -0.114
GCCATGGA: -0.089
AGCGCAGA: 0.196
ATACTGGA: -0.174
CGTATAGA: -0.00664
AGTCCTTA: -0.137
TAATATAA: 0.0397
ACTTATGA: -0.199
AGGGGTAT: -0.225
CAGTAGCA: -0.072
CGCTCGTA: 0.153
ATACCTGG: -0.2
ACTGTAAC: -0.0736
CGACTAGC: 0.089
CACCTGCG: 0.0549
CTGTAGCA: -0.152

Set 2 — method: RNA Bind-n-Seq; form: RNA; medium: in vitro; concentration: 200 nM; setting: whole 134-nt RNA, ends assumed; added: 150 mM LiCl; relative to: input library; direction: higher = stronger binding; measurement: log2 enrichment; library: 7-deaza-guanosine replaces G
Target: Ras GTPase-activating protein-binding protein 1, full length (G3BP1, Homo sapiens, UniProt Q13283)
UniProt Q13283, sequence (whole entry, looked up): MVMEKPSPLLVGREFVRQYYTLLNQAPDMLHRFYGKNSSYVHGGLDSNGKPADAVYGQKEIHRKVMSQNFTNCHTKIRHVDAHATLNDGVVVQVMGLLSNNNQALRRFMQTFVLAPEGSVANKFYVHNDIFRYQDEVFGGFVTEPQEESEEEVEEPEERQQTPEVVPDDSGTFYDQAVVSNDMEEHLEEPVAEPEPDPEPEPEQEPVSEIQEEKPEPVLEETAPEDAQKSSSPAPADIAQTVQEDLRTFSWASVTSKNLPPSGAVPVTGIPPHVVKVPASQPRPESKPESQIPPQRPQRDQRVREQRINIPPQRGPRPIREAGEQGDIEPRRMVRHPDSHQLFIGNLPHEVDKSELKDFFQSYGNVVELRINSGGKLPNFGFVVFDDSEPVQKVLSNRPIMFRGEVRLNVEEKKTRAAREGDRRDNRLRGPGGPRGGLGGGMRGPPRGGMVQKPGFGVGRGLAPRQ
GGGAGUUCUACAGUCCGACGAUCCAAGUCCUGUGCUACACAUCGUAUGUACCGAAUCGGUUUGGUUUGGUUUUUUUGGAAAGUAUUAUGUUACGCCGUUCGGAUCUGCACUUCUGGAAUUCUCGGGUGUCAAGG: -1.03
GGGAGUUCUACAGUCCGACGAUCCAAGUCCUGUGCUACACAUCGUAUGUACCGAAUCGGUUUGGAAAAAGGUUUUUGGAAAGUAUUAUGUUACGCCGUUCGGAUCUGCACUUCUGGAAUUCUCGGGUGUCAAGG: -1.55
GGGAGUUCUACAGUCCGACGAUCCUGUGCUACACAUCGUAUGUACCGAAUCGGGGUUUUUGGGGUUUUUGGGGUUUUUUUGGGGAAAGUAUUAUGUUACGCCGUUCGGAUCUGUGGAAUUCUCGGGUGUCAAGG: 1.48
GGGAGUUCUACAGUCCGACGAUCCCUCAAGUCCUGUGCUACACAUCGUAUGUACCGAAUCGGGCGGCGGGGCGGGAAAGUAUUAUGUUACGCCGUUCGGAUCUGCACUUCCAGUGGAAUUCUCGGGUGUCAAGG: 0.306
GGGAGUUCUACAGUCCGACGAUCAGUCCUGUGCUACACAUCGUAUGUACCGAAUCGGGAAAAAGGGAAAAAGGGUUUGGGAAAGUAUUAUGUUACGCCGUUCGGAUCUGCACUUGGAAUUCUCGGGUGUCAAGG: -2.36
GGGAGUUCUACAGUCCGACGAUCCCUCAAGUCCUGUGCUACACAUCGUAUGUACCGAAUCGGUUUUUGGUGGUGGAAAGUAUUAUGUUACGCCGUUCGGAUCUGCACUUCCAGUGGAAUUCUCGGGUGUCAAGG: 0.067
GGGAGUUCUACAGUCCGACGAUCCCUCAGUGUCAUUUAUGAAAAGAGGGGACCAGAAGCCAAAGACUUAGUAUAUUUUCUUUUCCUCUGUCCCUUCCCCCAUAAGCCUCCAUUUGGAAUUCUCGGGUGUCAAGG: 0.564
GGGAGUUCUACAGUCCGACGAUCCAAGUCCUGUGCUACACAUCGUAUGUACCGAAUCGGGAAAGGAAAGGGGAAAGGGAAAGUAUUAUGUUACGCCGUUCGGAUCUGCACUUCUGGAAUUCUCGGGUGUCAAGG: 0.0609
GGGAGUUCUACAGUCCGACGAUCCACAGACAACACGCACCCACACAGACACAGAGGGAAGGGGUUGGGAUGGGGUCAGGGUGCACAGCAGGGCGGGGUAGGACCCCAGCCCCUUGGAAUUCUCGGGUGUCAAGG: -0.112
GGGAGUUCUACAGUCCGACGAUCUGGCCCUGGUGGCAUGCGGGGAGGAAGAGGUGGCCUCAUGGAUCGUGGUGGUCCCGGUCGAAUGUUCAGAGGUGGCCGUGGUGGAGACAGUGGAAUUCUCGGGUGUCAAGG: 0.0548
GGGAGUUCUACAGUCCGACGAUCUAACUUUAGAGGAGGAUCUGAUGGAUAUGGCAGUGGACGUCGAUUUGGGGAUGGCUAUAAUGGGUAUGGAGGAGGACCUGGAGGUGGCAAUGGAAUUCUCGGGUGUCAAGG: -0.0432

Set 3 — method: universal PBM; form: double-stranded DNA, one strand shown; medium: in vitro; concentration: 600 nM; direction: higher = stronger binding; measurement: E-score
Target: Sal-like protein 4, full length isoform A (SALL4, Homo sapiens, UniProt Q9UJQ4, residues 1-1053)
UniProt Q9UJQ4, sequence (whole entry, looked up): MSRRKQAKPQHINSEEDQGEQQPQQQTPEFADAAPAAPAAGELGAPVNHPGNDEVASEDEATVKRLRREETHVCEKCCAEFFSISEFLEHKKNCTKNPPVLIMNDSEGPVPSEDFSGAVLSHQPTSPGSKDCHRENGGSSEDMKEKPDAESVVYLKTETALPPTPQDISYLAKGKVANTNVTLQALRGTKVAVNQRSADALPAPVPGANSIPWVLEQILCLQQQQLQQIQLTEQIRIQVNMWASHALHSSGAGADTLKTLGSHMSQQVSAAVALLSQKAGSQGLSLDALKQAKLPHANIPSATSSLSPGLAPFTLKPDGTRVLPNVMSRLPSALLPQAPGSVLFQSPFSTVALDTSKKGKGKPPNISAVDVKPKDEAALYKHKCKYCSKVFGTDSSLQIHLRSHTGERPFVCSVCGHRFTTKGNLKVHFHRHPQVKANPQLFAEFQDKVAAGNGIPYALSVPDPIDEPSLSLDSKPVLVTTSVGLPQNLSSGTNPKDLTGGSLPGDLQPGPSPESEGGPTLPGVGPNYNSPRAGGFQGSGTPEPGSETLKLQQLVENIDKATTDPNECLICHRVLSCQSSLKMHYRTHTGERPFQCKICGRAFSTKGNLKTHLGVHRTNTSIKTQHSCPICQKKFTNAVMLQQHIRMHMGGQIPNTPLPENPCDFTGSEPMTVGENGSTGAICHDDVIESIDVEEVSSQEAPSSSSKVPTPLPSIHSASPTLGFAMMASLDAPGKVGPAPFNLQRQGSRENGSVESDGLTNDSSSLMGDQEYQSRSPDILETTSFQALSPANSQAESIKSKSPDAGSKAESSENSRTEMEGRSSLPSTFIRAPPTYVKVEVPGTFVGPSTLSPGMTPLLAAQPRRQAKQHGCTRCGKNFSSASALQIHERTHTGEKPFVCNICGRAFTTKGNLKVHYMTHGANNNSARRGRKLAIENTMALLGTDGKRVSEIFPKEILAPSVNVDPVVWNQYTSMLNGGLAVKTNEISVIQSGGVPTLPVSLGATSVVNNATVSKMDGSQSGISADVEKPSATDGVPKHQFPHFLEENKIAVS
Setting: 8-mer, flanks averaged, mean of replicates
CTCCAAAG: -0.025
AGAGGTAG: -0.000245
CGGAAGTC: -0.106
GGTACAAC: 0.0855
GATTGCCA: -0.156
TATGGACA: 0.194
CTTACCTC: -0.129
ATTTAGGC: 0.0693
GAAAGCCA: -0.208
GGTCATCA: 0.107
AATAACAA: 0.36
AGGTTCCC: -0.262
AGTAGCCC: -0.18
CCTTTAGA: 0.0734
CCACATGC: 0.0249
CCTGAATA: 0.0249
AGCGATTA: 0.0929
CTTATTGA: 0.278
TACAGGGA: -0.171
CGCATGAC: -0.19
CAGGCAAC: -0.121
CCACTACC: -0.134
GGACCTAA: -0.0518
GGATCCGA: -0.242
GTCTATGA: 0.136

Set 4 — method: protein-binding microarray; form: double-stranded DNA, one strand shown; medium: in vitro; concentration: 250 nM; setting: 60-bp whole probe; added: salmon DNA 0.4 mg/ml; relative to: random background probes; direction: higher = stronger binding; measurement: log fluorescence; shared flanks, not repeated: GCCTAGCAC … GTCTTGATTCGCTTGACGCTGCTG
Target: Interferon regulatory factor 7, full length, phosphomimetic (IRF7, Homo sapiens, UniProt Q92985, residues 1-503, S101K/S471D/S472D/S475D/S476D/S477D/S483D/S484D/S487D)
UniProt Q92985, sequence (whole entry, unmodified, looked up): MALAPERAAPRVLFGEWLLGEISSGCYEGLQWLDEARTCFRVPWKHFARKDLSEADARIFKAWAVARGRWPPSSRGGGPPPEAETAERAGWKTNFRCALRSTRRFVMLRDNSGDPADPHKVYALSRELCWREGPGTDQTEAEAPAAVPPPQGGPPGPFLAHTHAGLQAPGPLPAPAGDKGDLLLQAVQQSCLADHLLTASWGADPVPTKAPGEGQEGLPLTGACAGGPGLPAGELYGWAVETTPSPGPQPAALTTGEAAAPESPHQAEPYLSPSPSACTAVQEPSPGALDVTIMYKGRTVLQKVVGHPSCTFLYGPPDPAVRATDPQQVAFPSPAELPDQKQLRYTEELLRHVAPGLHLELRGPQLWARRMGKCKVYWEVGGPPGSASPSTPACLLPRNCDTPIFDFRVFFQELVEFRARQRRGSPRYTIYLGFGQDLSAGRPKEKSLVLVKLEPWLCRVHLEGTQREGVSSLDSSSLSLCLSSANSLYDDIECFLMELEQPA
TTAGATTCCAGTTTCTATTAGTGCTAG: 5.76 z-score
TTATGTTTCCTTATCCTTTAGTGCTAG: 2.21 z-score
TTAGATATCGGAACTGGATTAGTGCTA: 0.21 z-score
GACGTTTTCGGTTTCGGGACGTGCTAG: 9.25 z-score
TTAGATATCAGTTTCGATTAGTGCTAG: 8.51 z-score
GACGGACTGGACTTTCGTGACGTGCTA: -0.385 z-score
TCATGGTTCTGCTTCTTACTGTGCTAG: 0.13 z-score
CTTTAGAGCAAGAACAGCCTGTGCTAG: -0.302 z-score
GACGGTATCGAGACTGGGGACGTGCTA: -0.139 z-score
GACAGTTTCGACTATCGGGACGTGCTA: 5.13 z-score
GTAGATTTCGGGACTGGATTAGTGCTA: -0.214 z-score
TTAGATATCAGACTGGATTAGTGCTAG: -0.141 z-score
TCATCTTTTCTTTTCTTACTGTGCTAG: 1.9 z-score
TCATGTTTCTCAACCATACTGTGCTAG: 1.25 z-score
TTAGGTATCGGGTATCGGTAAGTGCTA: 1.12 z-score
TCATGTCCCCCTTTTATACTGTGCTAG: 0.955 z-score
CCGAGAAACAGTAACCCTCTGTGCTAG: -0.045 z-score
TTAGGTTTCGACTATCGGCTAGTGCTA: 5.09 z-score
TTACTTCCCAATTGTCTTTTCGTGCTA: 2.11 z-score
TTAGATATTGGGTATCGATTAGTGCTA: 0.458 z-score
AATGTTTTGTTTTTCATTATGTGCTAG: 2.4 z-score
TTCATTTTTTTTTTCATCATGTGCTAG: 0.762 z-score
TTTACTTTCTATCTCTGTTTGTGCTAG: 2.71 z-score
TCAAGTTTCTCAACCACACTGTGCTAG: 0.647 z-score

Repeated from above (set 1):
TAATATAA: 0.0397
ACTTATGA: -0.199
AGGGGTAT: -0.225
CAGTAGCA: -0.072
CGCTCGTA: 0.153
ATACCTGG: -0.2
ACTGTAAC: -0.0736
CGACTAGC: 0.089
CACCTGCG: 0.0549
CTGTAGCA: -0.152
